{"data": "Experimental data from different studies", "note": "Every numbered part comes from another study and shows a few of its results, in no order. ± marks the error that the study gave."}
{"data": "Block 1", "target": "HLA class I histocompatibility antigen, B alpha chain, allele B*08:01 (Homo sapiens, UniProt P01889)", "effect on": "binding", "action": "competitor"}
{"Compound": "CC[C@H](C)[C@H](NC(=O)[C@@H](NC(=O)[C@@H](N)CCCNC(=N)N)[C@@H](C)O)C(=O)N[C@@H](CCCCN)C(=O)N[C@H](C(=O)N[C@@H](Cc1ccccc1)C(=O)N[C@H](C(=O)N[C@H](C(=O)N[C@H](C(=O)O)C(C)C)[C@@H](C)O)[C@@H](C)O)C(C)C", "IC50": "1380 nM"}
{"Compound": "CC(C)[C@H](NC(=O)[C@@H](NC(=O)[C@@H](NC(=O)[C@@H](NC(=O)[C@@H](NC(=O)CNC(=O)[C@H](CO)NC(=O)[C@@H](N)Cc1ccc(O)cc1)C(C)C)C(C)C)[C@@H](C)O)[C@@H](C)O)C(=O)O", "IC50": "1140 nM"}
{"Compound": "CC(C)C[C@H](NC(=O)[C@H](CO)NC(=O)CNC(=O)[C@H](CCCCN)NC(=O)[C@@H](NC(=O)[C@H](CC(N)=O)NC(=O)[C@H](CC(N)=O)NC(=O)[C@H](C)NC(=O)[C@@H](N)CCCNC(=N)N)[C@@H](C)O)C(=O)O", "IC50": "12100 nM"}
{"Compound": "CC[C@H](C)[C@H](NC(=O)[C@@H](NC(=O)[C@H](CCCNC(=N)N)NC(=O)[C@H](CCSC)NC(=O)[C@H](CC(N)=O)NC(=O)[C@H](Cc1ccc(O)cc1)NC(=O)[C@@H]1CCCN1C(=O)[C@@H](N)C(C)C)C(C)C)C(=O)O", "IC50": "6300 nM"}
{"data": "Further values, each from its own experiment"}
{"Substance": "pdtaS C53A (Mycobacterium tuberculosis)", "tested on": "itself", "test": "MST", "quantity": "Kd", "result": "445 nM"}
{"Substance": "O=c1[nH]cnc2c([C@@H]3N[C@H](CO)[C@@H](O)[C@H]3O)c[nH]c12", "tested on": "SARS-CoV-2", "test system": "Vero C1008, Omicron BA.5", "conditions": "48 h", "quantity": "EC90", "result": "2000 ± 69 nM"}
{"Substance": "pdtaS H303Q (Mycobacterium tuberculosis)", "tested on": "pdtaS (Mycobacterium tuberculosis)", "test": "MST", "quantity": "Kd", "result": "1440 nM"}
{"Substance": "COc1ccc(-c2cc(=O)c3c(OC)cc(OC)cc3o2)cc1", "tested on": "SARS-CoV-2", "test": "virucidal activity", "conditions": "virus pre-treatment", "quantity": "EC50", "result": "438000 ± 59300 nM"}
{"note": "Excerpt of the above (further values, each from its own experiment):"}
{"Substance": "COc1ccc(-c2cc(=O)c3c(OC)cc(OC)cc3o2)cc1", "tested on": "SARS-CoV-2", "test": "virucidal activity", "conditions": "virus pre-treatment", "quantity": "EC50", "result": "438000 ± 59300 nM"}
